Results gathered from unrelated publications.
Protocols differ between the studies behind these lines. ± marks the error that the study gave.
Cell line: RAW264.7

SMILES	assay	setting	IC50
CC(C)/C=C/c1c(O)cc(/C=C/C2=CC(=O)OC2CC(=O)O)cc1O (stereo not drawn)	NO release, inhibitor	LPS-stimulated	> 25 µg/mL
CC(=O)CC(=O)C1CC(C)C(=O)C1=O (stereo not drawn)	cell viability, CCK-8	48 h, together with: LPS 1 µg/mL	1.02 ± 0.08 µM
CC1(C)C=Cc2c(O)cc(/C=C/c3ccc(O)cc3)cc2O1	NO release, inhibitor	LPS-stimulated	7 µg/mL
O=C(Nc1cc2ccccc2cc1C(=O)O)c1ccccc1	cytotoxicity, MTT	together with: visible light, BSA	> 100 µM
Nc1ccccc1C#Cc1cc(F)cc(F)c1	NO release, inhibitor, Griess	LPS-stimulated	4.6 µM
COc1cc(/C=C/c2ccccc2)cc(OC)c1	NO release, inhibitor	LPS-stimulated	> 25 µg/mL
O=C(CCNNC(=O)c1ccncc1)NCc1ccccc1	NO release, inhibitor, Griess	LPS-stimulated	> 200 µg/mL
Cc1ccc(C)c(NC(=O)CSc2nnc(-c3ccc(NC(=O)c4cccnc4)cc3)n2N)c1	TNF-α release, inhibitor, ELISA	LPS-stimulated	4.3 µM
COc1cccc(-c2cc3ccccc3[nH]2)c1	NO release, inhibitor, Griess	LPS-stimulated	49.7 µM
CC(=O)c1ccc(NC(=O)CSc2nnc(-c3ccc(NC(=O)c4cccnc4)cc3)o2)cc1	NO release, inhibitor, Griess	LPS-stimulated	11.4 µM
Oc1cc(O)cc(/C=C/c2ccccc2)c1	NO release, inhibitor	LPS-stimulated	6.9 µg/mL
Cc1ccccc1-c1cc2ccccc2[nH]1	NO release, inhibitor, Griess	LPS-stimulated	2.8 µM
Nn1c(SCC(=O)Nc2ccc(F)cc2)nnc1-c1ccc(NC(=O)c2cccnc2)cc1	reactive oxygen species, inhibitor, fluorescence	LPS-stimulated	27.9 µM
COc1cc(O)cc(/C=C/c2ccccc2)c1	NO release, inhibitor	LPS-stimulated	8.5 µg/mL
NCC1CC(=S)N2CC3CCCN4CCCC(C34)C2C1 (stereo not drawn)	osteoclast differentiation, TRAP activity	3 d, together with: RANKL and CSF-1	2.41 µM
Cc1ccc(-c2cc(C(F)(F)F)nn2-c2ccc(S(N)(=O)=O)cc2)cc1	IL-6 release, inhibitor, ELISA	LPS-stimulated	13 µM
CC(=O)CC(=O)C1CCC(C(C)=O)C1=O (stereo not drawn)	cell viability, CCK-8	48 h, together with: LPS 1 µg/mL	1.73 ± 0.15 µM
Nn1c(SCC(=O)Nc2ccccc2Cl)nnc1-c1ccc(NC(=O)c2cccnc2)cc1	TNF-α release, inhibitor, ELISA	LPS-stimulated	35.4 µM
COc1ccc2c(c1)c(CC(=O)O)c(C)n2C(=O)c1ccc(Cl)cc1	NO release, inhibitor, Griess	LPS-stimulated	44.7 µM
CC(C)/C=C/c1c(O)cc(/C=C/c2ccc(O)cc2)cc1O	NO release, inhibitor	LPS-stimulated	6 µg/mL
O=C(CSc1nnc(-c2ccc(NC(=O)c3cccnc3)cc2)o1)Nc1cccc(Br)c1	reactive oxygen species, inhibitor, fluorescence	LPS-stimulated	8.06 µM
